Experimental data pooled from the literature.
Protocols differ between the studies behind these lines. Values joined by “and” are separate records of one study, mostly repeats; a detail may differ. ± marks the error that the study gave.
Cell line: HepG2

SMILES = CCOC(=O)c1nn(-c2cccc(Cl)c2)/c(=N/N=C(\C)c2ccc(NC(=O)c3ccccc3)cc2)s1; test = MTT; setting = 0.156 µM; quantity = cytotoxicity; value = 74.1%
SMILES = Nc1ncnc2c1ncn2CCN1C(=O)C(=O)c2cc(Cl)ccc21; test = cell growth, SRB; setting = 72 h; quantity = IC50; value = 2.05 ± 1.25 µg/mL
SMILES = CC(=NN=c1[nH]c(C)c(N=Nc2ccc(C)cc2)s1)c1c(O)c2ccccc2oc1=O; test = cell growth, MTT; how to read = baseline: IC50 BJ-1 over HepG2; quantity = selectivity index; value = > 1.75
SMILES = c1cnc2c(c1)ccc1cccnc12; setting = 25 µg/mL; how to read = baseline: other treatment groups; quantity = IL-10 mRNA level; value = increased
SMILES = O=C(O)Cc1ccccc1Nc1c(Cl)cccc1Cl; test = item: BiP protein; setting = 24 h, distribution mode 2; quantity = point of departure; value = 794 µM
SMILES = CC(=NN=c1scc(C)n1C)c1c(O)c2ccccc2oc1=O; test = cell growth, MTT; how to read = baseline: IC50 BJ-1 over HepG2; quantity = selectivity index; value = > 2.17
SMILES = CC(=O)c1nn(-c2ccc(Cl)cc2)/c(=N/N=C(\C)c2ccc(NC(=O)c3ccc(C)cc3)cc2)s1; setting = 0.078 µM; quantity = toxicity; value = 20.9%
SMILES = CNC(=S)NN=C(C)c1c(O)c2ccccc2oc1=O; test = cell growth, MTT; how to read = baseline: IC50 BJ-1 over HepG2; quantity = selectivity index; value = > 2.08
SMILES = CC(=O)c1nn(-c2ccc(Cl)cc2)/c(=N/N=C(\C)c2ccc(NC(=O)c3ccc(Cl)cc3)cc2)s1; setting = 5 µM; quantity = viability; value = 61.9%
SMILES = CN(CCOc1ccc(CC2SC(=O)NC2=O)cc1)c1ccccn1 (centres unmarked); test = TMRE, item: mitochondrial membrane potential; setting = 24 h, distribution mode 2; quantity = point of departure; value = 56.2 µM
SMILES = COc1cc([C@@H]2c3cc4c(cc3[C@@H](O[C@@H]3O[C@@H]5CO[C@@H](C)O[C@H]5[C@H](O)[C@H]3O)[C@H]3COC(=O)[C@H]23)OCO4)cc(OC)c1O; test = MTT; how to read = baseline: IC50 MRC-5 over IC50 HepG2; quantity = selectivity index; value = 0.3
SMILES = COc1ccc(NC(=O)c2c(Nc3ccccc3)sc(C#N)c2NC(=O)CNc2ccc(Cl)cc2)cc1; test = ELISA; setting = IC50, 24 h; quantity = active caspase-3 level; value = 321 ± 24.8 pg/mL
SMILES = NC(=O)NCCC[C@H](N)C(=O)O; test = cell viability, MTT; setting = 24 h; quantity = IC50; value = > 10000 µM
SMILES = CCN1C(=O)C(C)SC1=NN=C(C)c1c(O)c2ccccc2oc1=O (centres unmarked); test = cell growth, MTT; how to read = baseline: IC50 BJ-1 over HepG2; quantity = selectivity index; value = > 1.25
SMILES = CCOC(=O)/C=C\C(=O)OCC; test = high content imaging, item: nuclei count; setting = 24 h, expected PoD; quantity = point of departure; value = 28.6 µM
SMILES = COc1ccc(NC(=O)c2c(Nc3ccccc3)sc(C(=O)NN=Cc3ccc(OC)c(O)c3)c2NC(C)=O)cc1; test = ELISA; setting = IC50, 24 h; quantity = active caspase-7 level; value = 212 ± 20.9 pg/mL
SMILES = CCOc1nc(-c2cccc(O)c2)cc(-c2cc3ccccc3nc2N2CCOCC2)c1C#N; test = MTT; how to read = baseline: WI-38 EC50 over HepG2 IC50; quantity = selectivity ratio; value = 0.288
SMILES = CCOC(=O)c1cccc(NC(=O)c2sccc2S(=O)(=O)N(C)c2ccc(OCC)cc2)c1; test = SRE promoter reporter, activator, luciferase reporter; quantity = EC50; value = > 25 µM
SMILES = CCC1=C(C)/C(=C/NC23C[C@H]4C[C@@H](C2)C[C@](C)(C4)C3)N=C1c1ccc(C)[nH]1; how to read = baseline: HepG2 IC50 over P. falciparum D6 IC50; quantity = selectivity index; value = 11500
SMILES = NC(=S)N/N=C1\C(=O)N(CCn2ncc3c(=O)[nH]cnc32)c2ccc(F)cc21; test = cell growth, SRB; setting = 72 h; quantity = IC50; value = 9.96 ± 3.35 µg/mL
SMILES = CC(=O)c1nn(-c2ccccc2Cl)/c(=N/N=C(\C)c2ccc(NC(=O)c3ccccc3)cc2)s1; test = MTT; setting = 2.5 µM; quantity = cytotoxicity; value = 93.9%
SMILES = N[C@@H](COCC(=O)N1CCC[C@H](C(=O)NCc2nc(-c3ccc(C(F)(F)F)cc3)cs2)C1)c1ccccc1; test = cytotoxicity; quantity = EC50; value = ~20 µM
SMILES = Cc1nc2ccccc2n(CC(=O)Nc2ccc(C(=O)Nc3cccc(Cl)c3)cc2)c1=O; test = Annexin V-FITC/PI staining; setting = 2.3 µM; quantity = early apoptotic cells; value = 35.8 ± 3.18%
SMILES = COc1ccc(-n2nc(C(C)=O)s/c2=N\N=C(/C)c2ccc(NC(=O)c3ccccc3)cc2)cc1; setting = 0.312 µM; quantity = viability; value = 89.4%
SMILES = CC(=O)c1sc(=NN=C(C)c2c(O)c3ccccc3oc2=O)n(C)c1C; test = cell growth, MTT; how to read = baseline: IC50 BJ-1 over HepG2; quantity = selectivity index; value = > 1.75
SMILES = COc1ccc(-n2nc(C(C)=O)s/c2=N\N=C(/C)c2ccc(NC(=O)c3ccc(Cl)cc3)cc2)cc1; setting = 5 µM; quantity = viability; value = 6.13%
SMILES = CCOC(=O)c1sc(=NN=C(C)c2c(O)c3ccccc3oc2=O)n(C)c1C; test = cell growth, MTT; how to read = baseline: IC50 BJ-1 over HepG2; quantity = selectivity index; value = > 2.42
SMILES = N#C[C@@]1(c2ccc3c(N)ncnn23)O[C@H](CO)[C@@H](O)[C@H]1O; test = qPCR; setting = 100 µM, 10 days, 3; how to read = baseline: untreated; quantity = mitochondrial DNA content; value = 83.3 ± 11.7%
SMILES = CCCCCNC(=O)N1CCC(CN(Cc2ccc(Cl)cc2)Cc2ccc([N+](=O)[O-])s2)C1 (centres unmarked); test = qPCR, item: BMAL1 mRNA; setting = concentration not given; how to read = baseline: REV-ERBα/β siRNA over control siRNA; quantity = decrease of effect; value = 85%
SMILES = CNC(=O)c1cc(Oc2ccc(NC(=O)Nc3ccc(Cl)c(C(F)(F)F)c3)cc2)ccn1; test = mitochondrial membrane potential; setting = 5 to 25 µM, 24 h; quantity = MitoTracker Red fluorescence loss; value = > 50%
SMILES = CCOC(=O)c1nn(-c2cccc(Cl)c2)/c(=N/N=C(\C)c2ccc(NC(=O)c3ccc(Cl)cc3)cc2)s1; test = MTT; setting = 10 µM; quantity = cytotoxicity; value = 96%
SMILES = CCOC(=O)c1cc(Cl)cc(NC(=O)c2sc(Cl)cc2S(=O)(=O)N(C)c2ccc(OCC)c(OC)c2)c1; test = SRE promoter reporter, activator, luciferase reporter; quantity = EC50; value = 0.19 µM
SMILES = CCc1ccc(CCOc2ccc(CC3SC(=O)NC3=O)cc2)nc1 (centres unmarked); test = MTT, item: MTT response; setting = 24 h, distribution mode 2; quantity = point of departure; value = 46.8 µM
SMILES = O=C(COP(=O)(O)O)[C@@H](O)[C@H](O)[C@H](O)COP(=O)(O)O; test = LC-MS/MS; setting = concentration not given; how to read = baseline: 2-PG over 3-PG; quantity = 2-PG/3-PG ratio; value = 0.419 and 0.369 and 0.342
SMILES = CC(=O)Nc1ccc(/C(C)=N/N=c2\sc(C(C)=O)nn2-c2ccc(C)cc2)cc1; test = MTT; setting = 0.625 µM; quantity = cytotoxicity; value = 0.182%
SMILES = CCn1cc(-c2cc(Cn3ccoc3=N)cc3c2CCN([C@@H](C)c2cc(OC)ccn2)C3=O)c(C(F)(F)F)n1; test = cell growth, inhibitor; setting = 120 h; quantity = EC50; value = 1.44 µM
SMILES = Nc1n[nH]c2nc(-c3cccc(O)c3)cc(-c3cc4ccccc4nc3N3CCOCC3)c12; test = MTT; how to read = baseline: WI-38 EC50 over HepG2 IC50; quantity = selectivity ratio; value = 4.41
SMILES = Nc1ccn([C@H]2CC[C@@H](CO)O2)c(=O)n1; test = qPCR; setting = 20.0 µM, 10 days, 2; how to read = baseline: untreated; quantity = mitochondrial DNA content; value = 12.2 ± 2.8%
SMILES = CC(=O)c1nn(-c2ccc(C)cc2)/c(=N/N=C(\C)c2ccc(NC(=O)c3ccccc3)cc2)s1; test = MTT; setting = 5 µM; quantity = cytotoxicity; value = 93.2%
SMILES = CCOc1ccc(N(C)S(=O)(=O)c2ccsc2C(=O)Nc2cccc(C(=O)OC)c2)cc1; test = SRE promoter reporter, activator, luciferase reporter; quantity = EC50; value = > 25 µM
SMILES = CC(C)(C)c1cc(O)ccc1O; test = extracellular flux, item: oxygen consumption rate; setting = 24 h, representative mode; quantity = point of departure; value = 162 µM

Repeated from above:
SMILES = CNC(=O)c1cc(Oc2ccc(NC(=O)Nc3ccc(Cl)c(C(F)(F)F)c3)cc2)ccn1; test = mitochondrial membrane potential; setting = 5 to 25 µM, 24 h; quantity = MitoTracker Red fluorescence loss; value = > 50%
SMILES = CCOC(=O)c1nn(-c2cccc(Cl)c2)/c(=N/N=C(\C)c2ccc(NC(=O)c3ccc(Cl)cc3)cc2)s1; test = MTT; setting = 10 µM; quantity = cytotoxicity; value = 96%
SMILES = CCOC(=O)c1cc(Cl)cc(NC(=O)c2sc(Cl)cc2S(=O)(=O)N(C)c2ccc(OCC)c(OC)c2)c1; test = SRE promoter reporter, activator, luciferase reporter; quantity = EC50; value = 0.19 µM
SMILES = CCc1ccc(CCOc2ccc(CC3SC(=O)NC3=O)cc2)nc1 (centres unmarked); test = MTT, item: MTT response; setting = 24 h, distribution mode 2; quantity = point of departure; value = 46.8 µM
